Published values collected from several papers.
Lines come from different studies, so protocols differ.
Organism: Enterococcus faecalis

| SMILES | technique | strain | medium | time | temperature | notes | MIC |
| --- | --- | --- | --- | --- | --- | --- | --- |
| CC[C@H](C)[C@H](NC(=O)[C@H](CC(C)C)NC(=O)[C@@H](NC(=O)[C@H](Cc1ccc(O)cc1)NC(=O)[C@H](CO)NC(=O)CNC(=O)[C@H](CCCNC(=N)N)NC(=O)[C@H](CCCNC(=N)N)NC(=O)[C@H](CCCNC(=N)N)NC(=O)[C@@H]1CCCN1C(=O)[C@H](CCCCN)NC(=O)[C@H](Cc1c[nH]c2ccccc12)NC(=O)[C@@H](NC(=O)[C@H](Cc1c[nH]c2ccccc12)NC(=O)[C@H](CCCCN)NC(=O)[C@H](CCCNC(=N)N)NC(=O)[C@H](CCCNC(=N)N)NC(=O)[C@@H]1CCCN1C(=O)[C@H](CO)NC(=O)[C@H](CCCNC(=N)N)NC(=O)[C@H](CO)NC(=O)[C@H](CCCNC(=N)N)NC(=O)[C@@H](N)CCCNC(=N)N)[C@@H](C)O)[C@@H](C)O)C(=O)N[C@@H](CO)C(=O)N[C@@H](CCC(N)=O)C(=O)NCC(=O)NCC(=O)N[C@@H](CC(N)=O)C(=O)O | – | ATCC 29212 | – | – | – | highest concentration 50 µM | 21.8 µM |
| CCCCCCCC/C=C\CCCCCCCC(=O)NS(=O)(=O)NCCC | – | ATCC 33186 | – | – | – | – | > 200 µg/mL |
| CN(C)[C@@H]1C(O)=C(C(N)=O)C(=O)[C@@]2(O)C(O)=C3C(=O)c4c(O)c(N)nc(Cl)c4C[C@H]3C[C@@H]12 | – | tet(M)-carrying | – | – | – | – | 32 µg/mL |
| CC[C@H](C)[C@H](NC(=O)CN)C(=O)NCC(=O)N[C@@H](CCCCN)C(=O)N[C@@H](Cc1ccccc1)C(=O)N[C@@H](CC(C)C)C(=O)N[C@@H](CCCCN)C(=O)N[C@@H](CCCCN)C(=O)N[C@@H](C)C(=O)N[C@@H](CCCCN)C(=O)N[C@@H](CCCCN)C(=O)N[C@@H](Cc1ccccc1)C(=O)NCC(=O)N[C@@H](CCCCN)C(=O)N[C@@H](C)C(=O)N[C@@H](Cc1ccccc1)C(=O)N[C@H](C(=O)N[C@@H](CCCCN)C(=O)N[C@H](C(=O)N[C@@H](CC(C)C)C(=O)N[C@@H](CCCCN)C(=O)N[C@@H](CCCCN)C(N)=O)[C@@H](C)CC)C(C)C | broth dilution | KCTC 3511 | – | – | – | – | 6.3 µM |
| Cc1ncc2c(c1O)C(=O)C1=C(O)[C@]3(O)C(=O)C(C(N)=O)=C(O)[C@@H](N(C)C)[C@@H]3C[C@@H]1C2.Cl.Cl | – | tet(M)-carrying | – | – | – | – | > 32 µg/mL |
| CC[C@@H](C)[C@@H](NC(=O)[C@@H](CC(C)C)NC(=O)[C@H](NC(=O)[C@H](NC(=O)[C@H](NC(=O)[C@@H](CCCCN)NC(=O)[C@@H](CCCCN)NC(=O)[C@@H](CCCCN)NC(=O)[C@H](N)CCCCN)C(C)C)[C@H](C)CC)[C@H](C)CC)C(=O)N[C@H](CO)C(=O)N[C@H](CC(C)C)C(=O)N[C@H](CCCCN)C(=O)N[C@H](CCCCN)C(=O)N[C@H](CCCCN)C(=O)N[C@H](CCCCN)C(=O)N[C@H](Cc1ccccc1)C(=O)N[C@H](CO)C(=O)N[C@H](C)C(=O)N[C@H](Cc1ccc(O)cc1)C(N)=O | broth microdilution | ATCC 29212 | – | – | – | highest value reported | 0.5 µM |
| CN(C)[C@@H]1C(O)=C(C(N)=O)C(=O)[C@@]2(O)C(O)=C3C(=O)c4c(O)cccc4[C@@](C)(O)[C@H]3C[C@@H]12 | – | tet(M)-carrying | – | – | – | – | > 32 µg/mL |
| NCCCC1CN(c2ccc3c(n2)NC(=O)CO3)C(=O)O1 (stereo not shown) | – | ATCC 29212 | – | – | – | – | 160 µg/mL |
| CC(C)C[C@H](NC(=O)[C@@H](NC(=O)[C@H](CCCNC(=N)N)NC(=O)[C@H](CCC(N)=O)NC(=O)[C@H](Cc1ccccc1)NC(=O)[C@H](Cc1ccc(O)cc1)NC(=O)[C@H](CC(N)=O)NC(=O)[C@H](Cc1c[nH]c2ccccc12)NC(=O)[C@@H](NC(=O)[C@H](CCCNC(=N)N)NC(=O)[C@H](CCCCN)NC(=O)[C@@H](N)Cc1ccccc1)C(C)C)C(C)C)C(=O)N[C@H](C(=O)N[C@@H](CCCCN)C(=O)N[C@@H](CCCCN)C(N)=O)C(C)C | broth dilution | KCTC 3511 | – | – | – | – | 50 µM |
| CN(C)[C@@H]1C(O)=C(C(N)=O)C(=O)[C@@]2(O)C(O)=C3C(=O)c4c(O)c(NC(=O)CNC(C)(C)C)nc(F)c4C[C@H]3C[C@@H]12.Cl.Cl | – | tet(M)-carrying | – | – | – | – | 32 µg/mL |
| CCCCCC(=O)N[C@@H](CCCNC(=N)N)C(=O)N[C@@H](CCCNC(=N)N)C(=O)N[C@@H](CCCNC(=N)N)C(=O)N[C@@H](CCCNC(=N)N)C(=O)N[C@H](C(=O)N[C@@H](CC(C)C)C(=O)N[C@H](C(=O)N[C@@H](CCCCN)C(=O)N[C@@H](CCCCN)C(=O)N[C@H](C(=O)N[C@@H](CC(C)C)C(=O)N[C@@H](CCCCN)C(=O)N[C@@H](CC(C)C)C(=O)N[C@@H](CCCCN)C(=O)N[C@@H](CO)C(=O)N[C@@H](CO)C(=O)N[C@@H](C)C(=O)N[C@@H](Cc1ccc(O)cc1)C(N)=O)C(C)C)[C@@H](C)CC)[C@@H](C)CC | broth microdilution | ATCC 29212 | – | – | – | highest value reported | 64 µM |
| Oc1c(Br)cc(Br)c2nc3ccccc3nc12 | broth microdilution | OG1RF | BHI broth | 16 h | 37 °C | – | 18.8 µM |
| CC(C)C[C@@H](NC(=O)[C@H](C)NC(=O)CNC(=O)[C@@H](NC=O)C(C)C)C(=O)N[C@@H](C)C(=O)N[C@@H](C(=O)N[C@H](C(=O)N[C@@H](C(=O)N[C@@H](Cc1c[nH]c2ccccc12)C(=O)N[C@H](CC(C)C)C(=O)N[C@@H](Cc1ccc2[nH]ccc2c1)C(=O)N[C@H](CC(C)C)C(=O)N[C@@H](Cc1c[nH]c2ccccc12)C(=O)N[C@@H](C(=O)N[C@@H](Cc1c[nH]c2ccccc12)C(=O)NCCO)C(C)C)[C@H](C)O)C(C)C)C(C)C | broth microdilution | JCM 5803 | – | – | – | – | 1.1 µM |
| CN[C@H](CC(C)C)C(=O)N[C@H]1C(=O)N[C@@H](CC(N)=O)C(=O)N[C@H]2C(=O)N[C@H]3C(=O)N[C@H](C(=O)N[C@H](C(=O)O)c4cc(O)cc(O)c4-c4cc3ccc4O)[C@H](O)c3ccc(c(Cl)c3)Oc3cc2cc(c3O[C@@H]2O[C@H](CO)[C@@H](O)[C@H](O)[C@H]2O[C@H]2C[C@](C)(N)[C@H](O)[C@H](C)O2)Oc2ccc(cc2Cl)[C@H]1O | – | ATCC 51575 vancomycin-resistant | – | – | – | – | > 50 µg/mL |
| CN[C@H](CC(C)C)C(=O)N[C@H]1C(=O)N[C@@H](CC(N)=O)C(=O)N[C@H]2C(=O)NC3C(=O)N[C@H](C(=O)N[C@H](C(=O)NCCC[N+](C)(C)C)c4cc(O)cc(O)c4-c4cc3ccc4O)[C@H](O)c3ccc(c(Cl)c3)Oc3cc2cc(c3OC2OC(CO)C(O)[C@H](O)[C@@H]2O[C@H]2CC(C)(NCc3ccc(-c4ccc(Cl)cc4)cc3)[C@H](O)[C@H](C)O2)Oc2ccc(cc2Cl)[C@H]1O (stereo partly shown) | – | BM4166, VanA vancomycin-resistant | – | – | – | – | 1 µg/mL |
| COCCNc1nc(Cl)c2c(c1O)C(=O)C1=C(O)[C@]3(O)C(=O)C(C(N)=O)=C(O)[C@@H](N(C)C)[C@@H]3C[C@@H]1C2.Cl.Cl.Cl | – | tet(M)-carrying | – | – | – | – | 8 µg/mL |
| CC[C@@H](C)[C@@H](NC(=O)[C@@H](CC(C)C)NC(=O)[C@@H](CCCNC(=N)N)NC(=O)[C@@H](CCCNC(=N)N)NC(=O)[C@@H](CCCNC(=N)N)NC(=O)[C@@H](CCCNC(=N)N)NC(=O)[C@@H](CC(C)C)NC(=O)[C@H](NC(=O)[C@H](NC(=O)[C@H](NC(=O)[C@@H](CC(C)C)NC(=O)[C@@H](CCCNC(=N)N)NC(=O)[C@@H](CO)NC(=O)[C@H](N)CO)C(C)C)[C@H](C)CC)[C@H](C)CC)C(=O)N[C@H](CO)C(=O)N[C@H](CCCNC(=N)N)C(=O)N[C@H](CCCNC(=N)N)C(=O)N[C@H](CCCNC(=N)N)C(=O)N[C@H](CCCNC(=N)N)C(N)=O | broth microdilution | ATCC 29212 | – | – | – | highest value reported | 1 µM |
| CCCCCCCCCCCCCCCC(=O)NS(=O)(=O)OCC | – | ATCC 33186 | – | – | – | – | > 200 µg/mL |
| Cc1ccc2[nH]c3c(c2c1)CCCC3NCCc1ccc(Br)cc1 (stereo not shown) | broth microdilution | JH2-2 | – | – | – | – | 4 µg/mL |
| CN(C)[C@@H]1C(O)=C(C(N)=O)C(=O)[C@@]2(O)C(O)=C3C(=O)c4c(O)cnc(F)c4C[C@H]3C[C@@H]12.Cl | – | tet(M)-carrying | – | – | – | – | 32 µg/mL |
| CC(C)C[C@@H](NC(=O)[C@H](C)NC(=O)CNC(=O)[C@@H](NC=O)C(C)C)C(=O)N[C@@H](C)C(=O)N[C@@H](C(=O)N[C@H](C(=O)N[C@@H](C(=O)N[C@@H](Cc1c[nH]c2ccccc12)C(=O)N[C@H](CC(C)C)C(=O)N[C@@H](Cc1cc2ccccc2[nH]1)C(=O)N[C@H](CC(C)C)C(=O)N[C@@H](Cc1c[nH]c2ccccc12)C(=O)N[C@H](CC(C)C)C(=O)N[C@@H](Cc1c[nH]c2ccccc12)C(=O)NCCO)C(C)C)C(C)C)C(C)C | broth microdilution | JCM 5803 | – | – | – | – | 0.13 µM |
| CC[C@H](C)[C@H](NC(=O)[C@H](CCCCN)NC(=O)[C@@H](NC(=O)[C@H](Cc1ccc(O)cc1)NC(=O)[C@H](CCCCN)NC(=O)[C@H](CCCCN)NC(=O)CNC(=O)[C@H](CCCCN)NC(=O)[C@@H](NC(=O)[C@H](C)NC(=O)[C@H](CC(C)C)NC(=O)[C@H](Cc1c[nH]c2ccccc12)NC(=O)CNC(=O)[C@@H](NC(=O)[C@H](Cc1ccccc1)NC(=O)[C@H](CCCCN)NC(=O)[C@H](CC(C)C)NC(=O)[C@H](Cc1ccccc1)NC(=O)[C@H](C)NC(=O)CNC(=O)[C@@H](N)CCSC)C(C)C)[C@@H](C)O)C(C)C)C(=O)N[C@@H](C)C(=O)N[C@@H](Cc1c[nH]c2ccccc12)C(=O)N[C@@H](CC(=O)O)C(=O)N[C@@H](Cc1c[nH]cn1)C(=O)N[C@@H](CCCCN)C(=O)NCC(=O)N[C@H](C(=O)N[C@H](C(=O)N[C@@H](CCSC)C(=O)N[C@@H](CCCCN)C(=O)N[C@@H](Cc1c[nH]c2ccccc12)C(=O)N[C@@H](CC(C)C)C(=O)N[C@@H](CC(N)=O)C(=O)N[C@@H](C)C(=O)NCC(=O)N[C@@H](CCC(N)=O)C(=O)N[C@H](C(=O)N[C@@H](Cc1ccccc1)C(=O)N[C@H](C(=O)N[C@@H](Cc1c[nH]c2ccccc12)C(=O)N[C@H](C(=O)N[C@@H](Cc1ccc(O)cc1)C(=O)N[C@@H](CCC(=O)O)C(=O)N[C@@H](CCC(N)=O)C(=O)N[C@H](C(=O)N[C@@H](CCCCN)C(=O)N[C@@H](CCCCN)C(=O)N[C@@H](CC(C)C)C(=O)N[C@@H](Cc1c[nH]c2ccccc12)C(=O)N[C@H](C(=O)O)[C@@H](C)O)[C@@H](C)CC)C(C)C)[C@@H](C)O)[C@@H](C)O)[C@@H](C)CC)[C@@H](C)O | broth microdilution | – | – | – | 37 °C | MRS medium | 3.9 µg/mL |

Excerpt of the above:
| SMILES | technique | strain | medium | time | temperature | notes | MIC |
| --- | --- | --- | --- | --- | --- | --- | --- |
| CC[C@H](C)[C@H](NC(=O)[C@H](CC(C)C)NC(=O)[C@@H](NC(=O)[C@H](Cc1ccc(O)cc1)NC(=O)[C@H](CO)NC(=O)CNC(=O)[C@H](CCCNC(=N)N)NC(=O)[C@H](CCCNC(=N)N)NC(=O)[C@H](CCCNC(=N)N)NC(=O)[C@@H]1CCCN1C(=O)[C@H](CCCCN)NC(=O)[C@H](Cc1c[nH]c2ccccc12)NC(=O)[C@@H](NC(=O)[C@H](Cc1c[nH]c2ccccc12)NC(=O)[C@H](CCCCN)NC(=O)[C@H](CCCNC(=N)N)NC(=O)[C@H](CCCNC(=N)N)NC(=O)[C@@H]1CCCN1C(=O)[C@H](CO)NC(=O)[C@H](CCCNC(=N)N)NC(=O)[C@H](CO)NC(=O)[C@H](CCCNC(=N)N)NC(=O)[C@@H](N)CCCNC(=N)N)[C@@H](C)O)[C@@H](C)O)C(=O)N[C@@H](CO)C(=O)N[C@@H](CCC(N)=O)C(=O)NCC(=O)NCC(=O)N[C@@H](CC(N)=O)C(=O)O | – | ATCC 29212 | – | – | – | highest concentration 50 µM | 21.8 µM |
| CCCCCCCC/C=C\CCCCCCCC(=O)NS(=O)(=O)NCCC | – | ATCC 33186 | – | – | – | – | > 200 µg/mL |
